Published values from different studies.
A part holds a random share of what one study measured. Substitutions count along the parent as printed.
UniProt P42681, sequence (whole entry, looked up): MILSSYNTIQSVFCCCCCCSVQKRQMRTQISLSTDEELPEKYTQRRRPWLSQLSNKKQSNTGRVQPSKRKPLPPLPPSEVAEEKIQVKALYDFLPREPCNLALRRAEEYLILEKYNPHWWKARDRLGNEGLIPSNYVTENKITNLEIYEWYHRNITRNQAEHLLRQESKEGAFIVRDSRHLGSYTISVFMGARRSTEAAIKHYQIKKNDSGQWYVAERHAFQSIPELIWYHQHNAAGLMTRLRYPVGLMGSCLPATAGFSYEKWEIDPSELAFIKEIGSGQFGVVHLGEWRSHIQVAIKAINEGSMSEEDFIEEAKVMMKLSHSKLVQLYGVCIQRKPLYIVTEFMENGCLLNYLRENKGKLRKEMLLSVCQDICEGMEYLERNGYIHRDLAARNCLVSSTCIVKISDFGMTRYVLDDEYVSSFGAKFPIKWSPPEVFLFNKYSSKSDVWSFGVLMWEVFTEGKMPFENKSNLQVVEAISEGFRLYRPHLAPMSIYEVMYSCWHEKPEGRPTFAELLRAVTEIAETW
UniProt P49761, sequence (whole entry, looked up): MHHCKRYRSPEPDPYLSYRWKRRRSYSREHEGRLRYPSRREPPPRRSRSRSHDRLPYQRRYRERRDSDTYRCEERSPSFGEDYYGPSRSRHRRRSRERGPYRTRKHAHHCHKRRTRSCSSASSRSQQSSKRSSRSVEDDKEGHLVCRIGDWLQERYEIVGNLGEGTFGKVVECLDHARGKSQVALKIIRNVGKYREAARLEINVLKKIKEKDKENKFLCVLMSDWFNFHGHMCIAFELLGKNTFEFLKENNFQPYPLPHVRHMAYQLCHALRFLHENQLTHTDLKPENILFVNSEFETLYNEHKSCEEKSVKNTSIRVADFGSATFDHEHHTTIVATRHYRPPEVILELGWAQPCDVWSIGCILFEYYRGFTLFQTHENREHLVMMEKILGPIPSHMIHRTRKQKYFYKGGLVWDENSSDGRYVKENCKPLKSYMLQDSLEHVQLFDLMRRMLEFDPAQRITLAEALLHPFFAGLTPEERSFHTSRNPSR
UniProt Q15759, sequence (whole entry, looked up): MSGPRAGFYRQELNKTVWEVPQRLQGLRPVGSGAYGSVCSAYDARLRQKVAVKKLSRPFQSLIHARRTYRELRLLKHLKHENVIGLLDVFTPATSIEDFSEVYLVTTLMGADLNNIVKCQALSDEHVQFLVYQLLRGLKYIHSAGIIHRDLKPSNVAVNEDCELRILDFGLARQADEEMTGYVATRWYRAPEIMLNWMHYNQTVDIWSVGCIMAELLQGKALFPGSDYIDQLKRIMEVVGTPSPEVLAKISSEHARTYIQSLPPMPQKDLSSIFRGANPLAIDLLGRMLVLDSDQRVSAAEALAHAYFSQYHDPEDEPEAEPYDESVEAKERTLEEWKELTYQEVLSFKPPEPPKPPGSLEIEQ
UniProt P50750, sequence (whole entry, looked up): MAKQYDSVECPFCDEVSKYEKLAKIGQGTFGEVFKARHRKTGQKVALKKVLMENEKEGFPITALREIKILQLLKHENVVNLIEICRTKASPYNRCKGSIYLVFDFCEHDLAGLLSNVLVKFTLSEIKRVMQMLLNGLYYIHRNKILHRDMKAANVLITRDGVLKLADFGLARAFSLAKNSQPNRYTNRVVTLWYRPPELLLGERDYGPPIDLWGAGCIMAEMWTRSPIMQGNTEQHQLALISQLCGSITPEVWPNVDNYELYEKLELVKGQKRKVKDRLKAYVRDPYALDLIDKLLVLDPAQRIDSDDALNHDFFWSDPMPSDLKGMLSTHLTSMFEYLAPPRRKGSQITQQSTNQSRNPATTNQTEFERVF
UniProt O75676, sequence (whole entry, looked up): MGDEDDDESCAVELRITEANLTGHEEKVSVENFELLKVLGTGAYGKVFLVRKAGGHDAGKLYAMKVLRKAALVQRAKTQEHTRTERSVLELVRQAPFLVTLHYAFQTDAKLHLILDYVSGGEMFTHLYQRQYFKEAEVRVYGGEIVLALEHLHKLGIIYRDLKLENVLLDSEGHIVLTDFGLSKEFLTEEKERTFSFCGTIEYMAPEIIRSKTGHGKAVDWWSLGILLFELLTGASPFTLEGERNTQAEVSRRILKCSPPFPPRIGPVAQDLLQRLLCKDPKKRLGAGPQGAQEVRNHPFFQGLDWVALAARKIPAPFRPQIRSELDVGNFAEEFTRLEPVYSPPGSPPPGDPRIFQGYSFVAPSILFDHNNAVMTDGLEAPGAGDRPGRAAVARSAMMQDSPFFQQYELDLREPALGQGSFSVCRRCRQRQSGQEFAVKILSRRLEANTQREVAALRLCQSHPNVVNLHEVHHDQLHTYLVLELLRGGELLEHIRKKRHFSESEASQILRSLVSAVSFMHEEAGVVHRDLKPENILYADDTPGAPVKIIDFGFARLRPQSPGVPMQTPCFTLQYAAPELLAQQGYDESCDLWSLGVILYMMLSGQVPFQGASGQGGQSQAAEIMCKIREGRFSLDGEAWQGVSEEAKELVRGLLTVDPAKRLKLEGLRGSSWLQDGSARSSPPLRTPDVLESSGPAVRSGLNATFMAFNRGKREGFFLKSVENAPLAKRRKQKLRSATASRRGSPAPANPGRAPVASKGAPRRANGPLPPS
UniProt P00519, sequence (whole entry, looked up): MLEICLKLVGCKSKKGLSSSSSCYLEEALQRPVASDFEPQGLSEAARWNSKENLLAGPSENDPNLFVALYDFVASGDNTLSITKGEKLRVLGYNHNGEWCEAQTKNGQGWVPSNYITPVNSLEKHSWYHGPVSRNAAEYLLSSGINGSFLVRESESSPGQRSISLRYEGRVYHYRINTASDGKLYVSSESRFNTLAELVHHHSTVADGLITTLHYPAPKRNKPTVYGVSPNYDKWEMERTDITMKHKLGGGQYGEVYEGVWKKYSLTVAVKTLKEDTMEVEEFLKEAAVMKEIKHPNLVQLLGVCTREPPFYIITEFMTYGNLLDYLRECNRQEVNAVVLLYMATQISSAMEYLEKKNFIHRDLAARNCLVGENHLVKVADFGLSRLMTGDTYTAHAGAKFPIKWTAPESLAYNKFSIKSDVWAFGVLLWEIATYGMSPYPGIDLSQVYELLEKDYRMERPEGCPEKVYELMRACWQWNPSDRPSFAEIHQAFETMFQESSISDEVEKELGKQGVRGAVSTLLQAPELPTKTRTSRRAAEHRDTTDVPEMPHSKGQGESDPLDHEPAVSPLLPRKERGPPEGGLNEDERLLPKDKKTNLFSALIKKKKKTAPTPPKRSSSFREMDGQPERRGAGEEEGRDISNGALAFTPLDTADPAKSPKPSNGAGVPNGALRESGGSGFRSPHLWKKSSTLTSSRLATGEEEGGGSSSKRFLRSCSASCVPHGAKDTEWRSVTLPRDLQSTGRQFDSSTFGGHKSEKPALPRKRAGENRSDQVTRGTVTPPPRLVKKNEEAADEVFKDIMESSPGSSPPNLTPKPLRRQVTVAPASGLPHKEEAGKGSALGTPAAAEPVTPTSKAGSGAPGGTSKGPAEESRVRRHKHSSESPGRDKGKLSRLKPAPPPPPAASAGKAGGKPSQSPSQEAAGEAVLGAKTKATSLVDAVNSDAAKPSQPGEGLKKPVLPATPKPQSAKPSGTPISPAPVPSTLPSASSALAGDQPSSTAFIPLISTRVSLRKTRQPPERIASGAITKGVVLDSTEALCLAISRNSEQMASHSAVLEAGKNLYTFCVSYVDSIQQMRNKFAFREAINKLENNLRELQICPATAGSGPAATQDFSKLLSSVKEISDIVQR
UniProt Q16832, sequence (whole entry, looked up): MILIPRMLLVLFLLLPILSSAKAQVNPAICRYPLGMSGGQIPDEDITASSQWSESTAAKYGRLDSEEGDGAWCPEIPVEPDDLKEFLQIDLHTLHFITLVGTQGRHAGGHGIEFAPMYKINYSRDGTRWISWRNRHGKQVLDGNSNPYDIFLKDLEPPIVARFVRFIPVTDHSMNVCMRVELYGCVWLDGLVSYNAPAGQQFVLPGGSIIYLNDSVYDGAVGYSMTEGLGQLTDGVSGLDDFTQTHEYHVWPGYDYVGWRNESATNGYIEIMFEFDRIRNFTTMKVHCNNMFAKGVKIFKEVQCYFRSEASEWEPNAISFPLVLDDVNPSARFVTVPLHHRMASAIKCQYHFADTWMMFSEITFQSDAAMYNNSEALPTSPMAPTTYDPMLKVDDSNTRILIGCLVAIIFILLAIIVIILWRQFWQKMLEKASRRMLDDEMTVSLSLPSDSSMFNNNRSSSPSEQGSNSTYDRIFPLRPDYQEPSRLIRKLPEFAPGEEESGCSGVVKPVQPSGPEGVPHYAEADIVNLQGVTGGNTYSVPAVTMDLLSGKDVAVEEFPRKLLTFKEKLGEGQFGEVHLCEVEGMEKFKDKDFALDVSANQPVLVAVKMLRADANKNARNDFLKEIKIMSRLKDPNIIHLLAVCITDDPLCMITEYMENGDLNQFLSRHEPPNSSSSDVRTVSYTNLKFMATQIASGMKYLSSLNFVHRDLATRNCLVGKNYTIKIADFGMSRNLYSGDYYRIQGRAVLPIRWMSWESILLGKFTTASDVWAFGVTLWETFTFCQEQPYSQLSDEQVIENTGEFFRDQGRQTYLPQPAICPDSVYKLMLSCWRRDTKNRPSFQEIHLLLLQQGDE
UniProt Q9BYT3, sequence (whole entry, looked up): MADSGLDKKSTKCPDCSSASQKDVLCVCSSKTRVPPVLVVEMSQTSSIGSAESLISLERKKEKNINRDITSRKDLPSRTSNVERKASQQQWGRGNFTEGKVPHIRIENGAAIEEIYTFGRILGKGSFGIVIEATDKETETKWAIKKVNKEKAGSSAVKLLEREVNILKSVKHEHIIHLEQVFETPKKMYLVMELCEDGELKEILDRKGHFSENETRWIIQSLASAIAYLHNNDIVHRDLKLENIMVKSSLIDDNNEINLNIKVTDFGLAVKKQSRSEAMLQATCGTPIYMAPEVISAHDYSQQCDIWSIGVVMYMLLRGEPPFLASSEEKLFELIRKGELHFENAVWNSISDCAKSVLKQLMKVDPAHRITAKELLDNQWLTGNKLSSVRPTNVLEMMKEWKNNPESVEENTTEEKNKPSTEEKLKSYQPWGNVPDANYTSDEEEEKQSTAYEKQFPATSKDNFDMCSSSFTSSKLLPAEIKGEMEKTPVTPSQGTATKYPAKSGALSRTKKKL

Study 1 — read-out: cell-free assay; technique: competition with immobilised ligand; concentration: 0.1 µM
SMILES: Nc1c(C(=O)NCc2ccc(C(=O)NCCCC3CCCCC3)cc2)cnn1-c1ccccc1
target | remaining binding [%]
Serine/threonine-protein kinase MRCK alpha (CDC42BPA, Homo sapiens, UniProt Q5VT25) | 100
Receptor-interacting serine/threonine-protein kinase 4 (RIPK4, Homo sapiens, UniProt P57078) | 100
Ephrin type-B receptor 3 (EPHB3, Homo sapiens, UniProt P54753) | 96
Ephrin type-A receptor 3 (EPHA3, Homo sapiens, UniProt P29320) | 100
Serine/threonine-protein kinase mTOR (MTOR, Homo sapiens, UniProt P42345) | 100
Tyrosine-protein kinase ABL1, non-phosphorylated (ABL1, Homo sapiens, UniProt P00519) | 81
Serine/threonine-protein kinase WNK3 (WNK3, Homo sapiens, UniProt Q9BYP7) | 92
Serine/threonine-protein kinase 33 (STK33, Homo sapiens, UniProt Q9BYT3) | 96
Tyrosine-protein kinase TXK (TXK, Homo sapiens, UniProt P42681) | 83
Dual specificity mitogen-activated protein kinase kinase 1 (MAP2K1, Homo sapiens, UniProt Q02750) | 100

Study 2 — technique: RNA Bind-n-Seq; form: RNA; matrix: in vitro; concentration: 20 nM; notes: 6-mer, flanks averaged, single round; together with: 150 mM LiCl; relative to: input library; direction: higher = stronger binding
Target: TAR DNA-binding protein 43, full length, His tag (TARDBP, Homo sapiens, UniProt Q13148, residues 1-414)
Oligonucleotide | 6-mer enrichment (R)
GUAGAU | 1.05
GCUGCC | 0.991
CCACCU | 0.963
UCGUGU | 1.14
CUCGUA | 0.825
AUGGAA | 0.964
UAGUGU | 1.41
GACGUC | 0.895

Study 3 — Structure (SMILES): O=C(Nc1ccc(Cl)cc1)c1ccccc1NCc1ccncc1; read-out: enzyme activity; action: inhibitor; concentration: 0.5 µM; relative to: control
target | remaining activity [%]
RAC-beta serine/threonine-protein kinase (AKT2, Homo sapiens, UniProt P31751) | 95.2
Serine/threonine-protein kinase DCLK2 (DCLK2, Homo sapiens, UniProt Q8N568) | 95.2
Mitogen-activated protein kinase 11 (MAPK11, Homo sapiens, UniProt Q15759) | 91.4
Tyrosine-protein kinase TXK (TXK, Homo sapiens, UniProt P42681) | 97.7
cGMP-dependent protein kinase 2 (PRKG2, Homo sapiens, UniProt Q13237) | 99.1
Dual specificity protein kinase CLK4 (CLK4, Homo sapiens, UniProt Q9HAZ1) | 107
Ribosomal protein S6 kinase alpha-4 (RPS6KA4, Homo sapiens, UniProt O75676) | 90.2
Discoidin domain-containing receptor 2 (DDR2, Homo sapiens, UniProt Q16832) | 88.9
Cyclin-dependent kinase 1, with cyclin A (CDK1, Homo sapiens, UniProt P06493) | 91.8
Serine/threonine-protein kinase Nek3 (NEK3, Homo sapiens, UniProt P51956) | 90.5
G protein-coupled receptor kinase 4 (GRK4, Homo sapiens, UniProt P32298) | 96.8
Cyclin-dependent kinase 9, with cyclin K (CDK9, Homo sapiens, UniProt P50750) | 95.5
Dual specificity mitogen-activated protein kinase kinase 1 (MAP2K1, Homo sapiens, UniProt Q02750) | 96.8
Dual specificity protein kinase CLK3 (CLK3, Homo sapiens, UniProt P49761) | 98.1

Study 4 — Substitution: L29A; technique: DHFR PCA, deep sequencing; matrix: yeast; relative to: wild-type fitted maximum; direction: higher = stronger binding
Target: ABI1, truncated, D143A, DHFR fusion (Arabidopsis thaliana)
Notes: methotrexate growth selection, single substitutions
Starting sequence: PYL1, truncated, DHFR fusion (Arabidopsis thaliana); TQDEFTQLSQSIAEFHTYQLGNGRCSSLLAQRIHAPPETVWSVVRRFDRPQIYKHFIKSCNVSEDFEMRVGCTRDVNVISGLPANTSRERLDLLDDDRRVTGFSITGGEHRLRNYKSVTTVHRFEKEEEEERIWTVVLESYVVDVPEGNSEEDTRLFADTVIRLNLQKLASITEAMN
together with | relative binding score [%]
(+)-ABA 1.4 µM | 2.34
(+)-ABA 0.032 µM | 4.77
(+)-ABA 0.0091 µM | 1.46
(+)-ABA 2500 µM | 92.8
(+)-ABA 58 µM | 44.1
(+)-ABA 17 µM | 28.9

Repeated from above (study 2):
Oligonucleotide | 6-mer enrichment (R)
AUGGAA | 0.964
GACGUC | 0.895
